Published values gathered from unrelated publications.
Parts stem from different laboratories: compare values within a part only. Changes are numbered by the printed parent chain.

Set 1 — target: BATF, bZIP domain (human); technique: DHFR protein complementation; matrix: yeast; relative to: wild-type JUN-FOS pair; reading: higher = stronger binding
Setting: single substitutions, most at no-binding floor
Parent: JUN, bZIP domain (human); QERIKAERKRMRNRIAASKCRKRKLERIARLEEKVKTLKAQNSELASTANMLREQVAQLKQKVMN; partner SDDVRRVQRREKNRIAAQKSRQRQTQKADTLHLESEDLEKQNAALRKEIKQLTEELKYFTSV
Substitution | binding fitness
T48M | -0.0309 natural log
L31K | -0.279 natural log
L52F | -0.632 natural log
S43Y | -0.088 natural log
E54S | -0.1 natural log
I28H | 0.00959 natural log
N42H | -0.0248 natural log
E54W | -0.341 natural log
L45M | -0.27 natural log
T48H | 0.009 natural log
L38N | -0.907 natural log
A40R | 0.043 natural log
R53T | -0.501 natural log
Q58H | -0.0293 natural log
A40D | 0.021 natural log
T48K | 0.0477 natural log
N42D | -1.1 natural log
E54N | -0.0449 natural log
A29V | -0.236 natural log

Set 2 — target: CCNA2, cyclin fold, Cln2 fusion (human); technique: yeast growth competition, sequencing; matrix: yeast; setting: strong parent motif; relative to: not given; reading: higher = stronger binding
Parent: CDC6 docking peptide (human); TLKGRRLVFDNQL; partner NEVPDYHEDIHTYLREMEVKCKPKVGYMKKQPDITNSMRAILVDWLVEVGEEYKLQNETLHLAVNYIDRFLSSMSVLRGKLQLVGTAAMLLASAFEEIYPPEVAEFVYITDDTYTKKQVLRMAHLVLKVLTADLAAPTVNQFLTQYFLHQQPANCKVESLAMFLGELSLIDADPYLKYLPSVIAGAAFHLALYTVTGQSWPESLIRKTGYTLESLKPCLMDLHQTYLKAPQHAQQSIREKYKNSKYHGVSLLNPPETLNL
Substitution | normalised enrichment score
N11L | 2.09
N11D | 3.63
R6W | -0.0499
G4N | 1.2
F9I | 0.823
L2G | 2.61
F9H | 1.1
T1C | 2.62
R6Q | 1.36
D10T | 1.92
L7G | 0.633
L13P | 3.7
F9N | 0.675
R6Y | 0.614
R5Q | -0.273
Q12P | 3.04
L2Y | 4.19

Set 3 — technique: aptamer microarray, sandwich; form: DNA with 2'F-ANA; matrix: in vitro; tested at: 200 nM; together with: Cy3 exosite-II aptamer, 400 nM; reading: higher = stronger binding; sequence: GGTTGGTGTGGTTGG
Target: Prothrombin, mature alpha-thrombin (F2, Homo sapiens, UniProt P00734)
Setting: whole 15-mer aptamer, many near background
Modification | mean fluorescence intensity [a.u.]
2'F-ANA at 2 4 5 8 9 10 13 | 62
2'F-ANA at 4 5 9 10 11 14 | 43.1
2'F-ANA at 3 6 8 11 12 13 14 15 | 514
2'F-ANA at 1 3 5 6 11 13 | 51.5
2'F-ANA at 1 2 4 5 10 11 12 13 | 50.1
2'F-ANA at 3 5 6 10 11 | 51.9
2'F-ANA at 2 5 10 | 90.3
2'F-ANA at 2 3 4 8 10 11 12 15 | 266
2'F-ANA at 2 4 5 8 13 14 | 47.1
2'F-ANA at 1 3 5 8 10 11 14 | 111
2'F-ANA at 1 3 5 11 13 | 51.9
2'F-ANA at 4 5 8 15 | 73.1
2'F-ANA at 2 3 7 8 15 | 974
2'F-ANA at 1 2 3 4 5 6 11 14 | 84.8
2'F-ANA at 1 3 5 6 7 11 14 15 | 46.4
2'F-ANA at 6 8 9 10 12 13 | 173
2'F-ANA at 1 2 3 5 8 11 12 15 | 105

Set 4 — target: UBE2G1 UBC core domain (UniProt P62253); technique: yeast two-hybrid; matrix: yeast; setting: mostly zero background; relative to: not given; reading: higher = stronger interaction
UniProt P62253, sequence (whole entry, looked up): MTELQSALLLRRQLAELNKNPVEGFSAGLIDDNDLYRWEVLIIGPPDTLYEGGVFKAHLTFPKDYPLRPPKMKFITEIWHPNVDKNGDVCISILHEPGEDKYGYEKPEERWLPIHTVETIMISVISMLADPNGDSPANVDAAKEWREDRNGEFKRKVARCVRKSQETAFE
B1: RBCK1 RING domain (UniProt Q9BYM8); chain SLVLNTEPAECPVCYSVLAPGEAVVLRECLHTFCRECLQGTIRNSQEAEVSCPFIDNTYSCSGKLLEREIK
B2: RNF121 RING domain (UniProt Q9H920); chain MPTKHLSDSVCAVCGQQIFVDVSEEGIIENTYRLSCNHVFHEFCIRGWCIVGKKQTCPYCKEKVDLKRMFS
B3: DZIP3 RING domain (UniProt Q86Y13); chain PDEEEEEEEPCVICHENLSPENLSVLPCAHKFHAQCIRPWLMQQGTCPTCRLHVLLPEEFP
B4: DTX2 RING domain (UniProt Q86UW9); chain EELKVPPDEDCIICMEKLSTASGYSDVTDSKAIGSLAVGHLTKCSHAFHLLCLLAMYCNGNKDGSLQCPSCKTIYGEKTGTQ
B5: RNF133 RING domain (UniProt Q8WVZ7); chain DEEINPNGDSCVICFERYKPNDIVRILTCKHFFHKNCIDPWILPHGTCPICKCDILKVLGIQ
B6: RNF19A RING domain (UniProt Q9NV58); chain ISKQIGDFIECPLCLLRHSKDRFPDIMTCHHRSCVDCLRQYLRIEISESRVNISCPECTERFNPHDIR
B7: RFWD3 RING domain (UniProt Q6PCD5); chain ASMDEEEGDTCTICLEQWTNAGDHRLSALRCGHLFGYRCISTWLKGQVRKCPQCNKKARHSDIVV
B8: SH3RF1 RING domain (UniProt Q7Z6J0); chain DESALLDLLECPVCLERLDASAKVLPCQHTFCKRCLLGIVGSRNELRCPECRTLVGSGVEEL
B9: MAP3K1 RING domain (UniProt Q13233); chain NSIKDEEEQMCPICLLGMLDEESLTVCEDGCRNKLHHHCMSIWAEECRRNREPLICPLCRSKWRSHDFYS
Sequence | lacZ reporter activity
GSDDEEIPFKCFICRQSFQNPVVTKCRHYFCESCALQHFRTTPRCYVCDQQTNGVFNPA (RNF113A RING domain (UniProt O15541)) | 0
B1 (RBCK1 RING domain) | 0
KLRKLKEAMLCMVCCEEEINSTFCPCGHTVCCESCAAQLQSCPVCRSRVEHVQHVY (MYLIP RING domain (UniProt Q8WY64)) | 0
B2 (RNF121 RING domain) | 0
B3 (DZIP3 RING domain) | 0
B4 (DTX2 RING domain) | 0
B5 (RNF133 RING domain) | 0
B6 (RNF19A RING domain) | 0
B7 (RFWD3 RING domain) | 0
NLSELTPYILCSICKGYLIDATTITECLHTFCKSCIVRHFYYSNRCPKCNIVVHQTQPLY (PCGF6 RING domain (UniProt Q9BYE7)) | 0
AMYLQENGIDCPKCKFSYALARGGCMHFHCTQCRHQFCSGCYNAFYAKNKC (RNF31 RING domain (UniProt Q96EP0)) | 0
B8 (SH3RF1 RING domain) | 0
B9 (MAP3K1 RING domain) | 0
FDGDVDPDLKCALCHKVLEDPLTTPCGHVFCAGCVLPWVVQEGSCPARCRGRLSAKELN (PDZRN3 RING domain (UniProt Q9UPQ7)) | 0

Set 5 — technique: universal PBM; form: double-stranded DNA, one strand shown; matrix: in vitro; tested at: 600 nM; reading: higher = stronger binding
Target: Sal-like protein 4, full length isoform A (SALL4, Homo sapiens, UniProt Q9UJQ4, residues 1-1053)
UniProt Q9UJQ4, sequence (whole entry, looked up): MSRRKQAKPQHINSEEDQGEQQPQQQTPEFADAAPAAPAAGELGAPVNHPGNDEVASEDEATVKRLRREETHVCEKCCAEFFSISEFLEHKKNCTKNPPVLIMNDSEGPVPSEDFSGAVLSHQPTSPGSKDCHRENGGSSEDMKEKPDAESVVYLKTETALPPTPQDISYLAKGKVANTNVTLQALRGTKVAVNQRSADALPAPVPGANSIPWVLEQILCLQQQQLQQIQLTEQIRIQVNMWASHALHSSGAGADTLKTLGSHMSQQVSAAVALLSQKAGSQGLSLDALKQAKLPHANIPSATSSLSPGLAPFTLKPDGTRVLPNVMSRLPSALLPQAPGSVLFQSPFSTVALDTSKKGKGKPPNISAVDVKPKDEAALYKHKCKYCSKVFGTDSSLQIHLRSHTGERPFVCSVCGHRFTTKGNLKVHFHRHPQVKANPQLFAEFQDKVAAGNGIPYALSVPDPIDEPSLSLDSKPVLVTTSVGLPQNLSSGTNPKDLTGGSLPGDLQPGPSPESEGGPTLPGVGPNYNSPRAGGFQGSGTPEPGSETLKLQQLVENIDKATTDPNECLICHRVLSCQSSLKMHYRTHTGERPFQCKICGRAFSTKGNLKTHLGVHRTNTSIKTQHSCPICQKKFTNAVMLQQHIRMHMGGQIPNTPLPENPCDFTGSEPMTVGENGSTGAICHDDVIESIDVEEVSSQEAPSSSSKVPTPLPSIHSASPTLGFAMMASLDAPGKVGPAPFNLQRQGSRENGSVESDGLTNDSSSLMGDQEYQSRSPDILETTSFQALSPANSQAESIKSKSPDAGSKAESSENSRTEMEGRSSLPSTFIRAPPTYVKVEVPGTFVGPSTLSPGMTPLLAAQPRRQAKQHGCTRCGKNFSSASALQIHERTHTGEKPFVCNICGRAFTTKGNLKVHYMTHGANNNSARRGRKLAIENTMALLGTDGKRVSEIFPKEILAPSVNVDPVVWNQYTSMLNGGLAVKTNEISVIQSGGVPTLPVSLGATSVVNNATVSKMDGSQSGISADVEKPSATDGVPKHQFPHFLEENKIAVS
Setting: 8-mer, flanks averaged, mean of replicates
Sequence | E-score
CAAAGATC | 0.0657
CCTTAAGA | 0.139
GGCAGTAC | -0.106
TTTACAAA | 0.296
CTATACGC | -0.089
ATGCCCGC | -0.244
GAACCGGA | -0.161
AAGATCGA | 0.114
CCTTCGAG | -0.317
ACGGTTAG | -0.195
CCGCTCGA | -0.32
AGCAGGGC | -0.285
GGCCAATA | 0.0889
AACCTTTG | 0.095
TACTCCAA | 0.0194
AAGGGTAA | 0.065
ATCTCTAA | 0.117
CCCGATAA | 0.00226
CCGACGAC | -0.0758
TGCCCACA | -0.288
GATCTTCC | -0.227
ATAATCAA | 0.34
GTGCCGGA | -0.186
ACTCAGAA | 0.0953
CAGAAGGG | -0.152

Set 6 — technique: EMSA with sequencing; form: double-stranded DNA, one strand shown; matrix: in vitro; tested at: 10 and 20 nM; relative to: negative control set to 0; reading: higher = stronger binding
Target: Hepatocyte nuclear factor 3-alpha (Foxa1, Mus musculus, UniProt P35582, residues 1-468, full length assumed)
UniProt P35582, sequence (whole entry, looked up): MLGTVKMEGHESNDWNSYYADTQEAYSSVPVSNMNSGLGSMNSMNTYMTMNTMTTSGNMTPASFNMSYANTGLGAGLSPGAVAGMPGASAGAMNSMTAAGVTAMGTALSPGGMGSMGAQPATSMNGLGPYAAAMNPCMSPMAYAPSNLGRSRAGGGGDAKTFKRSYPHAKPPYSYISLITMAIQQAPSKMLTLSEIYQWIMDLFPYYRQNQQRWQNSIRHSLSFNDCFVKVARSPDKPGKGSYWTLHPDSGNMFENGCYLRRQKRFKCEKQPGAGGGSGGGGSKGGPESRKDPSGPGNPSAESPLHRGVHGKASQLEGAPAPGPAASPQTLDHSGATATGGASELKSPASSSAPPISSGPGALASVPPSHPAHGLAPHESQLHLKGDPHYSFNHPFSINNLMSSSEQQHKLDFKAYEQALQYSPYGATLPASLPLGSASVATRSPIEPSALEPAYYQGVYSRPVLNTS
Setting: whole designed probe, mean of two concentrations, ends assumed
Sequence | normalised bound fraction [ratio]
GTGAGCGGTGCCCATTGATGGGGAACAGGTAGATCAAGTACTCATATCTCTATGTACAGATGACAATAAGTGATTTCTCAGGAGCAAACAAGGGGAGTTATTGTGATTGTCTGATGGTTTGTTTACTCTGAGACTTACTCTGTTTCAACTTTCCACCTTTTCTTTATTTTCCGTCCCAGACAGAAAGATTCTTCTTCTAGATAGACTGTTACTTCTACTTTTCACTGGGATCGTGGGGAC | 0.416
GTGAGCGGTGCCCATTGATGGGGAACCAAGTTTGTGGTCCAGGAGCAACAGGTTATGCCATACAGCCTAGGTGTGTAGTAGGCTACACACCGTCTATGTTCCATGACTCATCTCTACAATGTTTGCACAATGATGAAATCCCATGTCACATTTCTCAGAACATACCCCTGTTGTTAAGCGATACATGACTGTACTTTTTTTAAAAAGTCCAAGGATATATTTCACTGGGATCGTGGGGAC | 0.45
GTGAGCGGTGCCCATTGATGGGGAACTCCCTTTGTTCTACTCCTATACTCAAGTAATTCTGGAACACAGGCCATTTCACAAAGATTCTCTTCCCTATACACCATATTTACCTTTATTTCTTGTTTACTTAGCAAGCTTCTACATATCATTTCAGGTTTAGTTCTAACAAGCCTTTTCTTATGAACCTTTGTTTGATCTTCCTCCCTCCATCCTCTCCTTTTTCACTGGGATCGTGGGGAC | 0.556
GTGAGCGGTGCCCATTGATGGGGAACATCTTCCCCCTCTTCCTTGCCCCACCAGCTCACCTTCCCGGGTCAAAGTAAACAAGTGTTTACTTTGAAGCCGGCATTCGTTAACCCTCTTCTGGCGCAAACTGCCAAAGTAAACAGATGAATCATGGTCCTTTGGCGACGCCAGGCTCCGGGAGAGCAAAGCACCGTGTCAGGGCCATGATCCGGGGTGGCCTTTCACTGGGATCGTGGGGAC | 0.54
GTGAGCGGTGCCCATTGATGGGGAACATCTTCCCCCTCTTCCTTGCCCCACCAGCTCACCTTCCCGGGTTATTTGCACAAAGGAAAATAAATAAAGCCGGCATTCGTTAACCCTCTTCACGCGCATACTGCTGTTTGCTCTGGATGAATCATGGTCCTTTGGCGACGCCAGGCTCCGGGAGAGCAAAGCACCGTGTCAGGGCCATGATCCGGGCTCGCCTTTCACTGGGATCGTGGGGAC | 0.368
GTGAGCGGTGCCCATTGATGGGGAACGGTACAGGAAGTAAAAGGTTTCAGTATAAAATATTCAGTCTCCTCAGTGGAAAAGAACCTTCCATAACACAGATCAATAACAGGCTGCTTCCTGTTTACTCTGCCTAACTGGGGACTTTAGTATAAAACCTGATTACTGTTATCAGCAAGAAGCTGATTTGGCTGCTCTAAGGAGAGTCATCCAAATTAAAGATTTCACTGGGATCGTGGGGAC | 0.119
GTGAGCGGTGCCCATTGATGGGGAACGAAATGAGTCAGCTTAATCAACTGAAATTCGCATTTGCATAGTTCTCGAGGCTAGAAGTTCCAGACCAGGACACAGTGAGGAGGCAGCAGTCTGCAAACAAGGAAGAGAGCCCTCACCAGGAAATCAGTCAGCTGTTCTCATTTAATGTTCTCACTTTAGAAGATCATGCAAGGGACAAAATCTCCAGAATCTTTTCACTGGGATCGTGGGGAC | 0.0753
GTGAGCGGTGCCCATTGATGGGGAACATCTTCCCCCTCTTCCTTGCCCCACCAGCTCACCTACGGGGGTTATTTGCAGATAGGAAAATAAATAAAGCCGGCATTCGTTAACGCAGTTCACGCGCATACTGCTGTTTGCTCTGGATCTAACATGGTCCTTTGGCGACGCCAGGCTCCGGGAGAGCAAAGCACCGTGTCAGGGCCATGATCCGGGCTCGCCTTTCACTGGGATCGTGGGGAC | 0.342
